Experimental data from different studies.
Protocols differ between the studies behind these lines. Several values in a cell are separate wells, animals, samples, runs or records. ± gives the spread as reported.
Target: Transporter (Slc6a2, Rattus norvegicus, UniProt Q63380)

CCCC(C(=O)c1ccc2c(c1)OCO2)N1CCCC1 (racemic)  IC50 (transporter uptake, inhibitor, radiometric): 16.8 nM
CC(C)N(C)CCc1c[nH]c2ccccc12  IC50 (transporter uptake, inhibitor, radiometric): > 10000 nM
CNC(C)C(=O)c1cccc(C(F)(F)F)c1 (centres unmarked)  EC50 (releaser): 370 nM
COC(=O)C(c1ccccc1)C1CCCCN1 (centres unmarked)  IC50 (rat): 82.8 nM and 83 nM
CNC(C)C(=O)c1ccccc1 (centres unmarked)  EC50 (substrate release, releaser; rat brain synaptosomes; with: [3H]MPP+): 22 nM
COC(=O)[C@H]1[C@@H](c2ccc(Cl)c(Cl)c2)C[C@@H]2CC[C@H]1N2C  Ki (ligand displacement, radioligand; cell membranes): 7 nM
CC1NCCOC1c1ccccc1 (centres unmarked)  IC50 (inhibitor): 1200 nM
CCN(CC)CCc1c[nH]c2ccccc12  IC50 (transporter uptake, inhibitor, radiometric): > 10000 nM
CCCC(NCC)C(=O)c1ccc2c(c1)OCO2 (centres unmarked)  IC50 (transporter uptake, inhibitor, radiometric): 105 nM
CNC(C)C(=O)c1ccccc1C (centres unmarked)  EC50 (releaser): 53 nM
CNC(C)C(=O)c1ccc2c(c1)OCO2 (centres unmarked)  IC50: 712 ± 53 nM
CCC[C@@H](C(=O)c1ccccc1)N1CCCC1  IC50 (transporter uptake, inhibitor, radiometric): 10 nM
COC(=O)[C@H]1C(c2ccc(I)cc2)C[C@@H]2CC[C@H]1N2C (some centres unmarked)  IC50 (reuptake; rat brain synaptosomes): 6.35 nM
CC(C)NCCc1c[nH]c2ccccc12  IC50 (transporter uptake, inhibitor, radiometric): > 10000 nM
CCN(CC)c1ccc2c(-c3ccc(S(=O)(=O)NCCCCCC(=O)NCCN4C5CCC4[C@@H](C(=O)OC)[C@@H](c4ccc(Cl)c(Cl)c4)C5)cc3S(=O)(=O)[O-])c3ccc(=[N+](CC)CC)cc-3oc2c1 (some centres unmarked)  Ki (ligand displacement, radioligand; cell membranes): 79 nM
CNC(C)C(=O)c1ccc(C(F)(F)F)cc1 (centres unmarked)  EC50 (substrate release, releaser; rat brain synaptosomes; with: [3H]MPP+): 900 nM
CC(C)N(CCc1c[nH]c2ccccc12)C(C)C  IC50 (transporter uptake, inhibitor, radiometric): > 10000 nM

Excerpt of the above:
COC(=O)C(c1ccccc1)C1CCCCN1 (centres unmarked)  IC50 (rat): 82.8 nM and 83 nM
